{"data": "Results gathered from unrelated publications", "note": "A part holds a random share of what one study measured."}
{"data": "Set 1", "target": "Sal-like protein 4, full length isoform B (SALL4, Homo sapiens, UniProt Q9UJQ4-2, residues 1-616)", "technique": "universal PBM", "form": "double-stranded DNA, one strand shown", "matrix": "in vitro", "concentration": "not given", "setting": "8-mer, flanks averaged, mean of replicates", "reading": "higher = stronger binding", "Residues (chain)": "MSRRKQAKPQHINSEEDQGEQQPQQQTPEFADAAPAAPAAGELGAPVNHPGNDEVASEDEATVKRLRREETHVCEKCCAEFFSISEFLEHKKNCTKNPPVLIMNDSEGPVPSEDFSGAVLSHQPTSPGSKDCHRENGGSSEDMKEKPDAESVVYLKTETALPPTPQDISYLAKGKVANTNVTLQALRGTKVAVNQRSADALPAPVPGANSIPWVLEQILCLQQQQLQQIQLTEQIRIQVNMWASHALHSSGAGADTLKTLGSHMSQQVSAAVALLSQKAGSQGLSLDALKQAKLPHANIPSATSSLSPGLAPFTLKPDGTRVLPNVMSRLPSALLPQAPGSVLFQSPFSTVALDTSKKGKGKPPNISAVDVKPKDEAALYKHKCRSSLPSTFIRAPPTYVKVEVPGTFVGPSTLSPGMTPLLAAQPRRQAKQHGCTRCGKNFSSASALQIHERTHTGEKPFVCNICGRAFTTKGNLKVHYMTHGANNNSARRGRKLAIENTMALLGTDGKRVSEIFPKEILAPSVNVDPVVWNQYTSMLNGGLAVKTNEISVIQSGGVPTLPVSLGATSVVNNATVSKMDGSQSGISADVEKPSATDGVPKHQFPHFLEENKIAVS"}
{"Strand": "CAATGGAG", "E-score": -0.0216}
{"Strand": "GACCAATA", "E-score": 0.247}
{"Strand": "CCAACCAA", "E-score": -0.16}
{"Strand": "CGGATGGC", "E-score": -0.151}
{"Strand": "CTAGTAAC", "E-score": 0.0458}
{"Strand": "GTCAGGTA", "E-score": -0.116}
{"Strand": "CTGGCGTC", "E-score": -0.191}
{"Strand": "CAGGGTAC", "E-score": -0.194}
{"data": "Set 2", "target": "Histone acetyltransferase KAT6A, winged helix 1, GST fusion (KAT6A, Homo sapiens, UniProt Q92794, residues 1-85)", "technique": "protein binding microarray", "form": "double-stranded DNA, one strand shown", "matrix": "in vitro", "concentration": "not given", "setting": "8-mer, flanks averaged, mean of 2 arrays, mostly near background", "relative to": "not given", "reading": "higher = stronger binding", "Target sequence (chain)": "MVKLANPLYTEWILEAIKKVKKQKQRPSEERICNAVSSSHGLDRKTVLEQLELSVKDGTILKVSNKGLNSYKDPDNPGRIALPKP"}
{"Strand": "TCCTAGAA", "E-score": -0.148}
{"Strand": "CCCAAGCA", "E-score": -0.131}
{"Strand": "TGCCGTAA", "E-score": 0.342}
{"Strand": "GAAGGGCA", "E-score": -0.0655}
{"Strand": "ATTGTGTC", "E-score": -0.224}
{"Strand": "CATTGTTA", "E-score": -0.208}
{"Strand": "ACATACTC", "E-score": -0.122}
{"Strand": "GGATGCCA", "E-score": -0.322}
{"data": "Set 3", "target": "Replicase polyprotein 1ab, nsp13 helicase (rep, Severe acute respiratory syndrome coronavirus 2, UniProt P0DTD1)", "mode": "inhibitor", "concentration": "20 µM"}
{"SMILES": "CC(=O)CC(c1ccccc1)c1c(O)c2ccccc2oc1=O (centres unmarked)", "inhibition [%]": -24}
{"SMILES": "O=c1ncccn1[C@@H]1O[C@H](CO)[C@@H](O)[C@H]1O", "inhibition [%]": 4.36}
{"SMILES": "CCn1cnc(C(=O)NC)c1C(=O)NC", "inhibition [%]": 2.24}
{"SMILES": "CO[C@@]1(NC(=O)C2SC(=C(C(N)=O)C(=O)O)S2)C(=O)N2C(C(=O)O)=C(CSc3nnnn3C)CS[C@@H]21 (some centres unmarked)", "inhibition [%]": 8.07}
{"SMILES": "CNC[C@H](O)c1cccc(O)c1", "inhibition [%]": 0.38}
{"SMILES": "OC1(c2ccc(Cl)c(C(F)(F)F)c2)CCN(CCCC(c2ccc(F)cc2)c2ccc(F)cc2)CC1", "inhibition [%]": 1.91}
{"SMILES": "CC(C)(C)c1[nH]cnc1/C=c1\\[nH]c(=O)/c(=C/c2ccccc2)[nH]c1=O", "inhibition [%]": -20.6}
{"SMILES": "Cc1onc(-c2c(F)cccc2Cl)c1C(=O)N[C@@H]1C(=O)N2[C@@H]1SC(C)(C)[C@@H]2C(=O)O", "inhibition [%]": -6.55}
{"SMILES": "CCOC(=O)[C@H](Cc1ccc([N+](=O)[O-])cc1)NC(=O)c1ccccc1", "inhibition [%]": 1.87}
{"SMILES": "Oc1cc(O)c2c(c1)O[C@H](c1ccc(O)c(O)c1)[C@H](O)[C@H]2c1c(O)cc(O)c2c1O[C@H](c1ccc(O)c(O)c1)[C@H](O)C2", "inhibition [%]": 15.9}
{"SMILES": "Cc1cccc(C)c1-n1c(=O)c2cnc(Nc3ccc(N4CCN(C)CC4)cc3)nc2n2c3ccccc3nc12", "inhibition [%]": 34.6}
{"SMILES": "CC(=O)O/N=C1\\C(=O)N(Cc2cc(Cl)ccc2Cl)c2ccc(Cl)cc21", "inhibition [%]": 2.16}
{"SMILES": "CCCCCOc1ccc(-c2cc(-c3ccc(C(=O)N[C@H]4C[C@@H](O)[C@@H](O)NC(=O)[C@@H]5[C@@H](O)[C@@H](C)CN5C(=O)[C@H]([C@H](O)CC(N)=O)NC(=O)[C@H]([C@H](O)[C@@H](O)c5ccc(O)c(OS(=O)(=O)O)c5)NC(=O)[C@@H]5C[C@@H](O)CN5C(=O)[C@H]([C@@H](C)O)NC4=O)cc3)no2)cc1", "inhibition [%]": 44.1}
{"SMILES": "COc1cc(C(=O)NCc2ccc(OCCN(C)C)cc2)cc(OC)c1OC", "inhibition [%]": 7.42}
{"SMILES": "CCC(N)C(O)c1ccc(O)c(O)c1 (centres unmarked)", "inhibition [%]": 4.78}
{"SMILES": "N=C(N)NC(=O)Cc1c(Cl)cccc1Cl", "inhibition [%]": 2.76}
{"SMILES": "O=C(O)C(=O)Nc1cccc(-c2nnn[nH]2)c1", "inhibition [%]": 2.55}
{"SMILES": "Cc1cc(-c2nc(-c3ccc(OC(F)(F)F)cc3)no2)nn1Cc1ccnc(N2CCN(C3CC3)CC2)c1", "inhibition [%]": 4.14}
{"SMILES": "CC1=NN(c2ccccc2)C(=O)C1", "inhibition [%]": -2.65}
{"SMILES": "COc1cc2cc(c1Cl)N(C)C(=O)C[C@H](OC(=O)C(C)C)[C@]1(C)O[C@@H]1[C@H](C)[C@@H]1C[C@@](O)(NC(=O)O1)[C@H](OC)/C=C/C=C(\\C)C2", "inhibition [%]": 4.22}
{"SMILES": "NC(=O)CC[C@@H]1NC(=O)[C@H](Cc2ccccc2)NC(=O)[C@H](Cc2ccc(O)cc2)NC(=O)[C@@H](N)CSSC[C@@H](C(=O)N2CCC[C@H]2C(=O)N[C@@H](CCCN=C(N)N)C(=O)NCC(N)=O)NC(=O)[C@H](CC(N)=O)NC1=O", "inhibition [%]": -0.85}
{"SMILES": "C/C(=N\\NC(=O)[C@H]1C(=O)NC[C@@H]1c1ccccc1)c1cccc(Br)c1", "inhibition [%]": 7.54}
{"SMILES": "COc1ccc(Cc2nccc3cc(OC)c(OC)cc23)cc1OC", "inhibition [%]": 5.5}
{"SMILES": "COC(=O)c1ccccc1NC(=O)c1ccc(F)cc1", "inhibition [%]": -3.13}
{"SMILES": "O=C(O)c1ccc(/C=C2\\SC(=S)N(c3cccc(C(F)(F)F)c3)C2=O)cc1", "inhibition [%]": 3.89}
{"data": "Set 4", "target": "Interferon regulatory factor 5, full length, phosphomimetic (IRF5, Homo sapiens, UniProt Q13568-2, residues 1-514, S451D/S453D/S456D/S462D)", "technique": "protein-binding microarray", "form": "double-stranded DNA, one strand shown", "matrix": "in vitro", "concentration": "940 nM top", "setting": "60-bp whole probe", "with": "salmon DNA 0.4 mg/ml", "relative to": "random background probes", "reading": "higher = stronger binding", "all sequences stand within": "GCCTAGCAC … GTCTTGATTCGCTTGACGCTGCTG"}
{"Strand": "GACGATATCGTGACTGGAGACGTGCTA", "fitted relative affinity [z-score]": -0.642}
{"Strand": "GACGGGTTCCTACTGCTGACGTGCTAG", "fitted relative affinity [z-score]": -0.135}
{"Strand": "TTAGATTTCGGGTATCGATTGGTGCTA", "fitted relative affinity [z-score]": 3.59}
{"Strand": "GACCGTCTCCTTATCCTGACGTGCTAG", "fitted relative affinity [z-score]": 0.451}
{"Strand": "TTAGATTTCGTGTATCGATTAGTGCTA", "fitted relative affinity [z-score]": 1.32}
{"data": "Further values, each from its own experiment"}
{"Structure (SMILES)": "CC(C)(C)NCC(O)c1cc(O)cc(O)c1 (centres unmarked)", "cell line": "HEK-293T/ACE2", "assay": "pseudovirus infection", "system": "VSV pseudotyped with SARS-CoV-2 spike", "setting": "10 µM, 16 h", "how to read": "relative to: vehicle-treated", "measurement": "GFP-positive cells", "result": "62.9%"}
{"Structure (SMILES)": "CCOc1nc2cccc(C(=O)OC(C)OC(=O)OC3CCCCC3)c2n1Cc1ccc(-c2ccccc2-c2nnn[nH]2)cc1 (centres unmarked)", "cell line": "HEK-293T/ACE2", "assay": "pseudovirus infection", "system": "VSV pseudotyped with SARS-CoV-2 spike", "setting": "10 µM, 16 h", "how to read": "relative to: vehicle-treated", "measurement": "GFP-positive cells", "result": "5.52%"}
{"Structure (SMILES)": "CC[C@@H]1/C=C(\\C)C[C@H](C)C[C@H](OC)[C@H]2O[C@@](O)(C(=O)C(=O)N3CCCC[C@H]3C(=O)O[C@H](/C(C)=C/[C@@H]3CC[C@H](Cl)[C@H](OC)C3)[C@H](C)[C@@H](O)CC1=O)[C@H](C)C[C@@H]2OC", "cell line": "HEK-293T", "assay": "pseudovirus infection", "system": "VSV pseudotyped with SARS-CoV-2 spike", "setting": "10 µM, 16 h", "how to read": "relative to: vehicle-treated", "measurement": "GFP-positive cells", "result": "73.6%"}
{"Structure (SMILES)": "S=c1nc[nH]c2nc[nH]c12", "cell line": "HEK-293T-ACE2", "setting": "concentration not given", "how to read": "relative to: vehicle", "measurement": "cell number", "result": "106%"}
{"note": "Excerpt of the above (set 2):"}
{"Strand": "GGATGCCA", "E-score": -0.322}
{"Strand": "GAAGGGCA", "E-score": -0.0655}
{"Strand": "CATTGTTA", "E-score": -0.208}
